Measurements from different studies.
In brackets after ≈: the same amount, converted by molar mass.
Organism: Escherichia coli

The IC50 of CC[C@H](C)[C@H](NC(=O)[C@H](Cc1c[nH]c2ccccc12)NC(=O)c1ccccc1)C(=O)N[C@@H](CCCNC(=N)N)C(=O)N[C@@H](Cc1ccc(O)cc1)C(=O)N[C@@H](CCCCN)C(=O)N[C@@H](Cc1c[nH]c2ccccc12)C(=O)N1CCC[C@@H]1C(=O)N[C@@H](CCCNC(=N)N)C(=O)N[C@@H](CCCCN)C(=O)N[C@H](C(=O)N[C@H](C(=O)N[C@@H](CCCNC(=N)N)C(=O)N[C@@H](Cc1ccc(O)cc1)C(=O)N[C@@H](Cc1c[nH]c2ccccc12)C(=O)N[C@H](C(=O)NCC(=O)N1CCC[C@H]1C(N)=O)[C@@H](C)O)C(C)C)C(C)C is reported as greater than 100 µM (growth; DH5α; 16 h, 37 °C).
Under “MIC fold change”, COc1c(NC(=O)/C(C)=C/c2ccc(O)cc2)ccc(C(=O)N[C@@H](CC#N)C(=O)Nc2ccc(C(=O)Nc3ccc(C(=O)Nc4ccc(C(=O)O)cc4)c(O)c3OC)c(O)c2OC)c1O is recorded as 4 fold (clones expressing hydrolases; concentration not given; baseline: empty vector).
C=CC(=O)NCCCCCCOCc1cn(CCCCCCNC(=O)C=C)n[n+]1C gave an IC50 of greater than 100 µM (growth, turbidity OD600; ΔtolC; 24 h).
CC(C)C[C@H](NC(=O)[C@H](CCN)NC(=O)[C@H](CCN)NC(=O)[C@@H](Cc1ccccc1)NC(=O)[C@H](CC(C)C)NC(=O)[C@H](CCN)NC(=O)[C@H](CCN)NC(=O)[C@@H](CCN)NC(=O)CCS)C(N)=O gave an MBC of 32 µM (ATCC 10546; 24 h, 37 °C).
With C#CCCCC(=O)N[C@H]1CCOC1=O the inhibition was 60% (LuxR reporter, antagonist; DH5α sensor strain; 40 µM, added: OHHL 200 nM).
CC(=O)NC[C@H]1CN(c2ccc(N3CCN(C(=O)CN)CC3)c(F)c2)C(=O)O1 — result for “MIC activity class”: “inactive” (broth dilution; drug-resistant; concentration not given).
For CC[C@H](C)[C@H](NC(=O)[C@@H](CCCNC(=N)N)NC(=O)[C@H](CCCNC(=N)N)NC(=O)[C@@H]1CCCN1C(=O)[C@@H]1CCCN1C(=O)[C@H](CCCNC(=N)N)NC(=O)[C@@H]1CCCN1C(=O)[C@H](CCCNC(=N)N)NC(=O)[C@@H]1CCCN1C(=O)[C@H](CC(C)C)NC(=O)[C@H](Cc1c[nH]cn1)NC(=O)[C@@H]1CCCN1C(=O)[C@@H]1CCCN1C(=O)[C@H](CCCCN)NC(=O)[C@H](CC(=O)O)NC(=O)[C@@H](N)C(C)C)C(=O)N[C@@H](Cc1ccc(O)cc1)C(=O)N[C@@H](CC(N)=O)C(=O)N[C@H](CCCNC(=N)N)C(N)=O, the MIC was 4 µg/mL (≈ 1.69 µM) (broth microdilution; ATCC 25922; 18 h, 37 °C, 25% MHB2).
CC[C@H](C)[C@H](NC(=O)[C@H](CC(C)C)NC(=O)[C@H](CC(=O)O)NC(=O)[C@H](CCCNC(=N)N)NC(=O)[C@H](Cc1c[nH]c2ccccc12)NC(=O)[C@@H](N)CC(C)C)C(=O)N[C@@H](CS)C(=O)N[C@@H](CC(C)C)C(=O)N[C@@H](CS)C(=O)N[C@@H](CCCNC(=N)N)C(=O)N[C@@H](CC(N)=O)C(=O)N[C@@H](CCCNC(=N)N)C(=O)N[C@@H](CCCNC(=N)N)C(=O)N[C@@H](CS)C(=O)N[C@@H](CC(N)=O)C(=O)N[C@@H](CCCNC(=N)N)C(=O)NCC(=O)N[C@@H](CCC(N)=O)C(=O)N[C@@H](CC(C)C)C(=O)N[C@@H](Cc1ccccc1)C(=O)N1CCC[C@H]1C(=O)NCC(=O)N[C@@H](Cc1c[nH]c2ccccc12)C(=O)N[C@@H](CS)C(=O)N1CCC[C@H]1C(=O)NCC(=O)N[C@@H](Cc1c[nH]c2ccccc12)C(=O)N[C@@H](Cc1c[nH]c2ccccc12)C(=O)N[C@@H](CC(C)C)C(=O)N[C@@H](CCCNC(=N)N)C(=O)N[C@@H](CS)C(=O)N[C@@H](CS)C(=O)N[C@@H](CCCNC(=N)N)C(=O)N[C@@H](CCCNC(=N)N)C(N)=O gave a bactericidal rate of roughly 95% (colony count; 30 µg/mL, 2 h, 37 °C, pretreated pepsin gastric fluid, added: pepsin 1 mg/mL).
C=CC(=O)NCCCCCCCCOCc1cn(CCCCCCCCNC(=O)C=C)n[n+]1C has an IC50 of greater than 100 µM (growth, turbidity OD600; ΔtolC; 24 h).
COc1c(NC(=O)c2ccc(NC(=O)[C@H](CC#N)NC(=O)c3ccc(NC(=O)/C(C)=C/c4ccc(O)cc4)cc3)c(OC)c2O)ccc(C(=O)Nc2ccc(C(=O)O)cc2)c1O: “MIC fold change” 4 fold (clones expressing hydrolases; concentration not given; baseline: empty vector).
For C=CS(=O)(=O)NCCCCCCCCOCc1cn(CCCCCCCCNS(=O)(=O)C=C)nn1, the IC50 was greater than 100 µM (growth, turbidity OD600; ΔtolC; 24 h).
CC[C@H](C)CCCCC(=O)N[C@@H](CCN)C(=O)N[C@H](C(=O)N[C@@H](CCN)C(=O)N[C@H]1CCNC(=O)[C@H]([C@@H](C)O)NC(=O)[C@H](CCN)NC(=O)[C@H](CCN)NC(=O)[C@H](CC(C)C)NC(=O)[C@@H](CC(C)C)NC(=O)[C@H](CCN)NC1=O)[C@@H](C)O: “MIC fold change” 1.32 (daily serial passaging; ATCC 8739; highest sub-MIC, 4 days; baseline: initial MIC).
For O=C1C=CC(=O)N1CCCCCCCCCCOCc1cn(CCCCCCCCCCN2C(=O)C=CC2=O)nn1, the IC50 was greater than 100 µM (growth, turbidity OD600; ΔtolC; 24 h).
CCOC(=O)C1(Cc2ccccc2)Oc2cc(F)ccc2N(Cc2ccccc2)C1=O (stereo not shown) — result for growth inhibition: “no inhibition” (BL21(DE3); 100 µM).
The inhibition of C[C@H](N)[C@@H](CCCCCCCCCCCCCCC(=O)CCCCCCC[C@@H](O)[C@@H](C)N)O[C@@H]1O[C@H](CO)[C@H](O)[C@H](O)[C@H]1O is reported as 99% (microbial growth, resazurin; ATCC10536; 50 µM).
CC[C@H](C)[C@@H]1NC(=O)[C@H](CCC(N)=O)NC(=O)[C@@H](NC(=O)[C@H](CC(C)C)NC(=O)[C@H](C)NC(=O)[C@H](C)NC(=O)[C@@H]2CCCN2C(=O)[C@H](CC(C)C)NC(=O)[C@@H](NC(=O)[C@H](CCCCN)NC(=O)[C@H](C)NC(=O)[C@H](C)NC(=O)[C@@H](NC(=O)[C@H](CCCCN)NC(=O)[C@H](CC(C)C)NC(=O)[C@@H](NC(=O)[C@@H](NC(=O)CNC(=O)[C@H](CC(C)C)NC(=O)[C@@H](N)Cc2ccccc2)[C@@H](C)O)C(C)C)C(C)C)C(C)C)CSSC[C@@H](C(=O)O)NC(=O)[C@H](CCCCN)NC(=O)[C@H](CCCCN)NC(=O)[C@H](Cc2ccccc2)NC1=O — result for “time to eradication”: no more than 120 min (time-kill; ATCC 8739; 2-4 x MIC).
C=CC(=O)NCCCCOCc1cn(CCCCNC(=O)C=C)nn1 gave an IC50 of greater than 100 µM (growth, turbidity OD600; ΔtolC; 24 h).
O=C(O)CN(CC(=O)O)CP(=O)(O)O — result for “fold MIC reduction”: no less than 1 (ATCC 25922, no carbapenemase; 32 µg/mL, added: meropenem; baseline: meropenem alone).
CCCCCCCCCC(=O)OCCSCCC(=O)N[C@H](CCN)C(=O)N[C@@H](CCN)C(=O)N[C@@H](CCN)C(=O)N[C@@H](CC(C)C)C(=O)N[C@H](Cc1ccccc1)C(=O)N[C@@H](CCN)C(=O)N[C@@H](CCN)C(=O)N[C@@H](CC(C)C)C(N)=O has an MBC of 8 µM (ATCC 10546; 24 h, 37 °C).
With CC[C@H](C)[C@H](NC(=O)[C@H](CCCCN)NC(=O)[C@H](CCCCN)NC(=O)[C@H](Cc1ccccc1)NC(=O)[C@H](Cc1ccccc1)NC(=O)[C@H](CCCCN)NC(=O)[C@H](CCCCN)NC(=O)[C@H](Cc1ccccc1)NC(=O)[C@H](CCCNC(=N)N)NC(=O)[C@@H](N)CCCCN)C(=O)N[C@@H](CCCCN)C(=O)N[C@@H](CCCCN)C(=O)N[C@@H](CO)C(=O)N[C@H](C(=O)N[C@@H](CCCCN)C(=O)N[C@@H](CCCCN)C(=O)N[C@@H](CCCNC(=N)N)C(=O)N[C@H](C(=O)N[C@@H](CCCCN)C(=O)N[C@@H](CCCCN)C(=O)N[C@@H](CC(C)C)C(=O)N[C@@H](Cc1ccccc1)C(=O)N[C@@H](CCCCN)C(=O)N[C@@H](CCCCN)C(=O)N1CCC[C@H]1C(=O)N[C@@H](CCCNC(=N)N)C(=O)N[C@H](C(=O)N[C@H](C(=O)N1CCC[C@H]1C(=O)N[C@H](C(=O)N[C@@H](CO)C(=O)N[C@H](C(=O)N1CCC[C@H]1C(=O)N[C@@H](Cc1ccccc1)C(=O)O)[C@@H](C)CC)[C@@H](C)CC)[C@@H](C)CC)C(C)C)C(C)C)C(C)C the MBC was 8 µg/mL (E24 clinical isolate; 20 h).
CC[C@H](C)[C@H](NC(=O)[C@H](CCCNC(=N)N)NC(=O)[C@H]1CCCN1C(=O)[C@H](Cc1ccc(O)cc1)NC(=O)[C@@H](NC(=O)[C@@H](NC(=O)[C@H](CCCNC(=N)N)NC(=O)[C@H](Cc1ccccc1)NC(=O)[C@@H](NC(=O)[C@H](Cc1c[nH]c2ccccc12)NC(=O)[C@H](Cc1c[nH]c2ccccc12)NC(=O)c1ccccc1)C(C)C)C(C)C)C(C)C)C(=O)N[C@H](C(=O)N[C@@H](Cc1ccc(O)cc1)C(=O)N[C@@H](CCCNC(=N)N)C(=O)N[C@@H](CCCNC(=N)N)C(=O)N[C@H](C(=O)N[C@@H](CCCNC(=N)N)C(=O)N[C@@H](Cc1c[nH]c2ccccc12)C(=O)N[C@H](C(=O)NCC(=O)N1CCC[C@H]1C(=O)N[C@@H](CCCCN)C(=O)N[C@@H](CCCCN)C(N)=O)[C@@H](C)O)C(C)C)C(C)C gave an IC50 of 12.4 µM (cell growth; DH5α).
CN(C)S(=O)(=O)c1ccc(S(=O)(=O)N2CCC(n3c(=O)[nH]c4ccccc43)CC2)cc1 has a streptomycin concentration of 3.92 µg/mL (Keio wild type; concentration not given, 72 h).
For CSCC[C@H](NC(=O)[C@@H]1CCCN1C(=O)[C@H](CCCNC(=N)N)NC(=O)[C@H](CCCCN)NC(=O)[C@H](CCC(=O)O)NC(=O)[C@H](Cc1ccc(O)cc1)NC(=O)[C@H](CO)NC(=O)[C@H](CS)NC(=O)[C@H](CCCCN)NC(=O)[C@H](CCCCN)NC(=O)CCNC(=O)CCCCCNC(=O)[C@H](CCCNC(=N)N)NC(=O)CCCCCNC(=O)[C@H](CCCNC(=N)N)NC(=O)[C@H](CCCNC(=N)N)NC(=O)CCCCCNC(=O)[C@H](CCCNC(=N)N)NC(=O)[C@H](CCCNC(=N)N)NC(=O)CCCCCNC(=O)[C@H](CCCNC(=N)N)NC(=O)[C@H](CCCNC(=N)N)NC(=O)CCCCCNC(=O)[C@@H](N)CCCNC(=N)N)C(=O)N[C@@H](CS)C(=O)N[C@@H](CCCCN)C(=O)O, “minimum biofilm inhibitory concentration” read 1.5 µM (crystal violet; ATCC 25922).
C=C(C)C(=O)NCCCCCCCCOCc1cn(CCCCCCCCNC(=O)C(=C)C)n[n+]1C gave an IC50 of greater than 100 µM (growth, turbidity OD600; ΔtolC; 24 h).
Under “MIC of meropenem”, O=C(O)c1ncsc1-c1ccccc1 is recorded as 2 µg/mL (DH5α with VIM-2 plasmid; 10 µg/mL, added: meropenem).

Excerpt of the above:
C=CC(=O)NCCCCCCCCOCc1cn(CCCCCCCCNC(=O)C=C)n[n+]1C has an IC50 of greater than 100 µM (growth, turbidity OD600; ΔtolC; 24 h).
COc1c(NC(=O)c2ccc(NC(=O)[C@H](CC#N)NC(=O)c3ccc(NC(=O)/C(C)=C/c4ccc(O)cc4)cc3)c(OC)c2O)ccc(C(=O)Nc2ccc(C(=O)O)cc2)c1O: “MIC fold change” 4 fold (clones expressing hydrolases; concentration not given; baseline: empty vector).
